Assay results gathered from unrelated publications.
Every numbered part comes from another study and shows a few of its results, in no order. Substitutions count along the parent as printed.

Set 1
Target: JUN, bZIP domain (human)
Technique: DHFR protein complementation
Matrix: yeast
Setting: single substitutions, most at no-binding floor
Reference: wild-type JUN-FOS pair
Reading: higher = stronger binding
Starting sequence: JUN, bZIP domain (human); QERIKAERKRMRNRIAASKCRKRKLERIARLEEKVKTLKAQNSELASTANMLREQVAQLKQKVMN
Change | binding fitness
L59R | -1.2 natural log
L38G | -1.3 natural log
L38T | -1.36 natural log
L59P | -1.39 natural log
K34P | -1.34 natural log
L38I | -1.22 natural log
L31Q | -1.47 natural log
Q58P | -1.27 natural log
L38H | -1.33 natural log
L45Q | -1.3 natural log
L38D | -1.41 natural log
N42F | -1.21 natural log

Set 2
Target: Sal-like protein 4, full length isoform A (SALL4, Homo sapiens, UniProt Q9UJQ4, residues 1-1053)
UniProt Q9UJQ4, sequence (whole entry, looked up): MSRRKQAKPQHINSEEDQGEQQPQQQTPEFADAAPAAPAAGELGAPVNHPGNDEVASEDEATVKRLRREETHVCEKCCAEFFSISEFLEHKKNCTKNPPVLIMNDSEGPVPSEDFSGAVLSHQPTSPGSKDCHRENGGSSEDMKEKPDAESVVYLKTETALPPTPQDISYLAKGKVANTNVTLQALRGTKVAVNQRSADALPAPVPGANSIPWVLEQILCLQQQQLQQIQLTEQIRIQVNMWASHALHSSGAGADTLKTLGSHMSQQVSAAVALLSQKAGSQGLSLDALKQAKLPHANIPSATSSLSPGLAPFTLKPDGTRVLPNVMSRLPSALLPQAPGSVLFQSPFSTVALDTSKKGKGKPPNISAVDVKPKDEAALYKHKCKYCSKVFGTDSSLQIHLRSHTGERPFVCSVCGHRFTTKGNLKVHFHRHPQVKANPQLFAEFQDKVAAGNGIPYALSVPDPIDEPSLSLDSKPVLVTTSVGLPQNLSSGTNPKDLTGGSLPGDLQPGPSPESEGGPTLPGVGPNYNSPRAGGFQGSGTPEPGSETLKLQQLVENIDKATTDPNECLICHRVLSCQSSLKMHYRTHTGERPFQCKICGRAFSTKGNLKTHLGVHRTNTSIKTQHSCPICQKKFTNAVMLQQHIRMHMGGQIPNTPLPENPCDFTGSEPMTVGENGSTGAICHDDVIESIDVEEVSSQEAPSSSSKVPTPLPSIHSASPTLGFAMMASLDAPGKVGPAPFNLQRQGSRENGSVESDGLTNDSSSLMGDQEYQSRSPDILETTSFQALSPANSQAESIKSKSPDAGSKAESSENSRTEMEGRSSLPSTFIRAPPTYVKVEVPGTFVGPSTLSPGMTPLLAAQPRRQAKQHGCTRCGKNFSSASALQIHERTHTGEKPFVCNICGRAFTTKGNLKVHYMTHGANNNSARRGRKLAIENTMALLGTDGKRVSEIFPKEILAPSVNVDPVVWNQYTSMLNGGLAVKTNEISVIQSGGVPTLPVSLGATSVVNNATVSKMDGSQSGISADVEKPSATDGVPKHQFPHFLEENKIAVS
Technique: universal PBM
Molecule type: double-stranded DNA, one strand shown
Matrix: in vitro
Concentration: 600 nM
Setting: 8-mer, flanks averaged, mean of replicates
Reading: higher = stronger binding
Strand | E-score
AAGCCCAT | -0.119
CTTTGTGC | -0.0493
CCTTAGAG | -0.225
AACGCGTT | -0.0481
ACTCTTAA | 0.155
GGTGGCGA | -0.174
CCTTTTAC | 0.116
AAGTGAAG | 0.201
GGTCATAA | 0.321
CCTCCTAG | -0.0856
ATTGCTAC | 0.172
GCTGCGAC | -0.0841
AACAGCCC | -0.2
CTCTCCAC | -0.0578
TCTGATAA | 0.167
CCAGGGAC | -0.347
ATCAGTCC | -0.294
CCATCTAG | -0.0053
CCCTCAGG | -0.258
GTTCGAAC | -0.0206
ATCACCTC | 0.0549
AGTCATTA | 0.153
GAACTGAA | 0.1

Set 3
Target: CCNB3, cyclin fold, Cln2 fusion (human)
Technique: yeast growth competition, sequencing
Matrix: yeast
Setting: weak parent motif
Reference: not given
Reading: higher = stronger binding
Starting sequence: CDC42EP1 docking peptide (human); SLVVGKLSFDSSP; partner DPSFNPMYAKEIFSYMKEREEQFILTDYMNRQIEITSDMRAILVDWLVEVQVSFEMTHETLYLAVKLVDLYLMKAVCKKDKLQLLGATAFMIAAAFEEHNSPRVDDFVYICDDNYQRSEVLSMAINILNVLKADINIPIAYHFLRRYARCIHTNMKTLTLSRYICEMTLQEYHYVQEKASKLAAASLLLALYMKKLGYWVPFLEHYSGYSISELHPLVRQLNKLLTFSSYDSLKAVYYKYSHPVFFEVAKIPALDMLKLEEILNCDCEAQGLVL
Change | normalised enrichment score
SLVVGALSFDSSP [K6A] | -0.02
SLVVGKLSADSSP [F9A] | -0.147
ALVVGKLSFDSSP [S1A] | 0.141
SLVVAKLSFDSSP [G5A] | -0.0527
SLVVGKLSFDASP [S11A] | 0.0399
SAVVGKLSFDSSP [L2A] | 0.141
SLAVGKLSFDSSP [V3A] | -0.0838

Set 4
Target: RNA binding protein fox-1 homolog 2, RRM domain, GST-SBP tag (RBFOX2, Homo sapiens, UniProt O43251-10, residues 100-194)
Technique: RNA Bind-n-Seq
Molecule type: RNA
Matrix: in vitro
Concentration: 365 nM
Setting: natural RNA segment, single round, ends assumed
Reference: no-protein control
Reading: higher = stronger binding
All sequences stand within: GGGAGUUCUACAGUCCGACGAUC … UGGAAUUCUCGGGUGCCAA
Construct (chain): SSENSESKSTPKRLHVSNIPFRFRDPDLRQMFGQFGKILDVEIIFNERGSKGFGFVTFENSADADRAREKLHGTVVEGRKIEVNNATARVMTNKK
Strand | RBNS enrichment (R)
UCCUCGAGUGUCCAGUCUCAGGUGAUCUUGACCUGAUCGGAGUCGCCAGGCAGUAUAUCCAGUUAGAACUUCCGGCUUUUGCAUUAGCUUGUCUGAUGCUCAUGCCCCAC | 0.264
GACUUGGUGAUUACCUGAAAGCCCUUCUCAAGACCGAGUGUACACCACUUUCCCACACUGUGAACUAAUGACAAGUGACUUAUUUGCUCAUAAGUAAAUGUCUUCAUGUU | 0.262
GCCUCGUCACCUCCAGUUGGGUGCCUCUGGGUUCCCACUGGCUCUGCCCAGGUGGGGUGGGGUGGCCCAGGCAGCAGAAGGUUCCCUGAGGUCCCAGAGCCUGUUCCGUU | 0.166
CAUCUGCCCAGCACGGCCUGCACUGUGCCCACCCACUUGCUCCACAACGUCCAGUUGGUCCUGCUGCCAAGAGCCCCGUGCAUCCAGGCGGCCAAGCACAAACUGGGGGA | 1.2
AAGUGUUCAGCACUUGUGAGUGAAAAAUCAUGUAAUUAUCUGUAAAUAUGUAGCUAACAAAUUGACCUAGUUUCUGUAUUUUUUUGUUUUUGUACUAAAGUUUAUAGGUC | 0.494
UAAUCCUAGCACUUUGAGAGGCUAAGAAGGGAGGAUCACUUGAACCCAGGAGUUCAAGACCAGCCUGAGAAACAUAGUGAGACCCUGUCUCUAAAAAAAUAAAAACUUAG | 0.429
AGAGUCUCCCCAUUUUUUUUAACGCAACCCUUUCCCCUUUUUCCUACCCCACAGCUCUGUUCCAUGUAAGUUGCCAACAGUUUCACUGAACAGUGGGGUAUGUGAUGGUU | 0.568
GUAGGAAAUGAGGGCAGACAGGAAGAGAGCAACAUGUCCAGCCCAUAGACUCCACAGAGAAUGGUGCUUUGUCCAAGGAAACCUGAGUUUCUGAUUGCCCAGGAGCAGUC | 1.71
GUGCCGGGCAGGAGCAUGGGGUGCUUGGUUGUUUCCUUCCUAAUAAAAUAAACGCGGGUCGCCAUGCGUUGGGCCUCUUGUCGCUCAUUUCUGCGCUGGGCUUUAGGCGC | 0.539
CUCAAACCUGAAAGCAGAAAUUUUUAGUAGUUGAGUUGCUUUAAGUGAAUUUUAACAAAUAUGACACAGAAAAGGUCAGAUGCUGUUGUAUAAAAUUUUUUACUAGUGUG | 0.526
GCAGCAGGUGGCUCUUCUGCUGGGGCUGACUUGUCCAGAAGGGGACAAAGUGCAAUACAGAGCCUUCCCUACCCUGACGCCUCCCAGUCAUCAUCUCCAGAACUCCCAGC | 0.662
AAGCCUGUCAGAGUUUUCAACGGUGCUUAUAGCUGCCAGCUGGAUUCCAAACAGGUACCACAUUGUCUCUGAGCUAAUGUUUAUAUUUUUCCAUUCAGGCACCGAAAUAG | 0.386

Set 5
Target: ABI1, truncated, D143A, DHFR fusion (Arabidopsis thaliana)
Technique: DHFR PCA, deep sequencing
Matrix: yeast
Setting: methotrexate growth selection, single substitutions
Together with: (+)-ABA 200 µM
Reference: wild-type fitted maximum
Reading: higher = stronger binding
Starting sequence: PYL1, truncated, DHFR fusion (Arabidopsis thaliana); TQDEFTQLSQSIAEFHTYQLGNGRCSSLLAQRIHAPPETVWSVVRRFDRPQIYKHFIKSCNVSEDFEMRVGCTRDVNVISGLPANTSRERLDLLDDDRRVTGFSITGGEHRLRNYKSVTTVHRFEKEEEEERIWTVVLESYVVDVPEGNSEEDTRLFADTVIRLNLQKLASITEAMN; partner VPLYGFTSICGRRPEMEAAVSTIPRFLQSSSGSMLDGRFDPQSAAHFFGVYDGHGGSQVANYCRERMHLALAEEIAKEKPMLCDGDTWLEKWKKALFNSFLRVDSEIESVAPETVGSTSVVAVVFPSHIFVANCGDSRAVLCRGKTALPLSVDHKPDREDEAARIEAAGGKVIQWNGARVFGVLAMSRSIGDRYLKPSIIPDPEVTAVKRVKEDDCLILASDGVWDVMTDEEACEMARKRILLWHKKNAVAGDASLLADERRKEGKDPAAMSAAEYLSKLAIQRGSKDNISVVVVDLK
Change | relative binding score
T135S | 103%
A13W | 80.1%
T120Y | -0.676%
S150V | 78.4%
P36G | 84.2%
L112T | 1.37%
E89M | -5.32%
L82P | 85.3%
H110K | 13%
E14L | 90.5%
T154K | 15.7%
N114M | 40.4%
V142D | 81.8%
D3S | 96.7%
T39Q | 103%

Set 6
Target: Interferon regulatory factor 7, full length, phosphomimetic (IRF7, Homo sapiens, UniProt Q92985, residues 1-503, S471D/S472D/S475D/S476D/S477D/S483D/S484D/S487D)
UniProt Q92985, sequence (whole entry, unmodified, looked up): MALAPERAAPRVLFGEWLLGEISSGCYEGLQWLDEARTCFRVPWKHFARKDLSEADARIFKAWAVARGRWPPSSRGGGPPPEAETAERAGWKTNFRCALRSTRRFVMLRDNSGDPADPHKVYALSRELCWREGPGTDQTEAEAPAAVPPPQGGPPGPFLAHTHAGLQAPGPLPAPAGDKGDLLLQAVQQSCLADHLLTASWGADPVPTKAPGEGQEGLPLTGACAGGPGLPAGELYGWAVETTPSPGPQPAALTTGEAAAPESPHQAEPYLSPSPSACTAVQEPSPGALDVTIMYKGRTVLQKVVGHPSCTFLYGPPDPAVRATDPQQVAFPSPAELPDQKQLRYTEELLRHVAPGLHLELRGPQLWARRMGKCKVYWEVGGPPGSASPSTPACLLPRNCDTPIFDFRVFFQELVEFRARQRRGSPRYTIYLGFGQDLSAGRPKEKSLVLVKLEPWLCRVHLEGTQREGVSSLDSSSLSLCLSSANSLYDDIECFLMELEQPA
Technique: protein-binding microarray
Molecule type: double-stranded DNA, one strand shown
Matrix: in vitro
Concentration: 2200 nM top
Setting: 60-bp whole probe
Together with: salmon DNA 0.4 mg/ml
Reference: random background probes
Reading: higher = stronger binding
All sequences stand within: GCCTAGCAC … GTCTTGATTCGCTTGACGCTGCTG
Strand | fitted relative affinity
TTAGGACTGTGTCTCGGTTAGTGCTAG | 0.187 z-score
TCATTTTCCTCTGTCATACTGTGCTAG | 3.92 z-score
TTAGGTTTCCGTCTCGGTTAGTGCTAG | 2.11 z-score
TTACAACTGAGTTTCGATTAGTGCTAG | 4.33 z-score
TTCAATTTTTGCATCGTAAGGTGCTAG | 1.37 z-score
TTAGAACTGAGACTGAATTAGTGCTAG | -0.93 z-score
AGCAAAAATGATTGGTTGAAGTGCTAG | -1.06 z-score
AGATGAAAAGTGAAGCCTAGGTGCTAG | -0.915 z-score
TAAGGTATCCTTTTCCTTTAGTGCTAG | 1.5 z-score
GACGAGTTCGGGTATCGAGACGTGCTA | 0.406 z-score
GACGAACTGAGTATCGAGACGTGCTAG | -0.183 z-score
TTAGGATTGGGGACTGGGTTAGTGCTA | -0.36 z-score
TCAGAATTCAGAATGGGACTGTGCTAG | -0.449 z-score
TTAGGTATCGGTATCGGTAAGTGCTAG | 0.785 z-score
GACGATTCGAGTTTCGAGACGTGCTAG | 2.84 z-score

Set 7
Target: RING finger protein unkempt homolog, zinc fingers 1-6, GST-SBP tag (UNK, Homo sapiens, UniProt Q9C0B0, residues 30-357)
UniProt Q9C0B0, sequence (30-357, looked up): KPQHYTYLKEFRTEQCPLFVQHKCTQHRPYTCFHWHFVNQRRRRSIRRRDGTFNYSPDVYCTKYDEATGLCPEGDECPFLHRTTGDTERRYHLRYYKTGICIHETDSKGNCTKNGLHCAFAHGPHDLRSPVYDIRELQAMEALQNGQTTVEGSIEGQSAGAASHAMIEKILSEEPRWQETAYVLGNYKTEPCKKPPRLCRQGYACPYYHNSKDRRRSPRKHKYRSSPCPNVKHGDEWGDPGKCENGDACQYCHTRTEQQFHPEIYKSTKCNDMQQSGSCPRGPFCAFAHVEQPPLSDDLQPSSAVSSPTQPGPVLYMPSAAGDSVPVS
Technique: RNA Bind-n-Seq
Molecule type: RNA
Matrix: in vitro
Concentration: not given
Setting: RNA with constant flanks, human and mouse sites, ends assumed
Reference: input RNA pool
Reading: higher = stronger binding
All sequences stand within: GGGAGUUCUACAGUCCGACGAUC … CAACAGAGGAUUGAGCAUCA
Strand | bound/input enrichment
AAUGCCUCAGUAGUGGGAACGGCAGGGCUUAAAGAGCCGAUGCCAGCCCAGGUGUUUCUGGCUGUGCUCUAGUGACGGAAAUGUAAGUACUUUAAUUGUGAGAACGGAGAGUUGAUUAAA | 0.312 ratio
AAAGCCAUCUUUUCCACAUUUUCUGUAAAUAAUGGAUAAUCAUUUUAAAAAUUUUUAUUUUUAGUGCUGUUUUAACAAUGUAGAUAGAUCAUAAAUGUACUUGCUGAAUUCAAUCAUUUU | 9.13 ratio
GUCACAAGUAGGUUGGUAGAAAACAACCUGAUUCUGACCCUUUCUUUUUUUUUUUCCUGUUUUAGUCUCAGUAGAUCUUUUCAAGCACUGUCCUUACAGCUCAUGAAUGUUUAGGUCUUU | 1.09 ratio
UUACAAGUAUUUUAAUUUAAGUUCAGUGAACUUUUUUGUAGCUGGGUUAAAUCUUUUUAUUUUAGUAUGGCCUUAUGGCAAAGAACACUGUAUUAUUUUAAUAAUCACACAAUUGUGACG | 2.76 ratio
GUCUUGUAUAGCAAUAUGCUUGGAGAGGAGAAUACUUAUCUCUGGCGCACAUCACUAUAUUUGGCUGCCUCUGCCAGUGCUGAAUUCUUUGCUGACAUUGCCCUGGCUCCUAUGGAAGCU | 0.257 ratio
GCCUGGGCUCUCUUGGGCUUUAUCCAUGUCUUUAGAUUUGUGUUUGCCUUUUGUUUUUUUAACCGCGCAGUUCAUUGGCCACUCUGCACGCAUUCAGUAUUACCAUGGAGCUGGGAAUCU | 0.439 ratio
ACGCCAGUGUCCUAUGACCAGGGGGCAAAUAUGGCCAAACAGAUUGGAGCAGCUACUUAUAUCGAAUGCUCAGCUUUACAGUCGGAAAAUAGCGUCAGAGACAUUUUUCACGUUGCCACC | 0.142 ratio
GUAUCAAAAGUUUUAUUGUCCAUAUGUUCUCUACUUUGUGAUCCUAAUCCAGAUGACCCCUUAGUACCAGAUAUUGCACAAAUCUAUAAAUCAGACAAAGAAAAAUACAACAGACAUGCA | 2.48 ratio
GCACCCAAACCCGACAGUUCUAUGUCUCCAUUCAGCCACCUGUCGGGGAGCUGAUGGCCCCUGUAUUUAUGAGUGAGAAUGAGUUCAAGAAGGAACAGGGAAAGCUGACAGGCAUGAAUG | 0.171 ratio
GGAAAUGCUGCCUGGCAAGAACAGUUGAAACAGAAGAAAGCUCCAGUUCAUGUAAAACGUUGGUUUGGCUUUCUUGAAGCCCAGCAGGCCUUCCAGUCAGUAGGUACCAAGUGGGAUGUU | 0.282 ratio
AACAGUUUGUAAGAUGUGAAGGGUAAAGUUGAGUGUUGUAUGCUUAUGAGUAGUGGAAAACUGGACAUCUGAGACAGGCAAGGCAGUGUCCAUACAAGACUGAAGUCUGAAGCAGCCUAG | 0.479 ratio

Repeated from above (set 6):
Strand | fitted relative affinity
GACGATTCGAGTTTCGAGACGTGCTAG | 2.84 z-score
GACGAACTGAGTATCGAGACGTGCTAG | -0.183 z-score
AGATGAAAAGTGAAGCCTAGGTGCTAG | -0.915 z-score
TTACAACTGAGTTTCGATTAGTGCTAG | 4.33 z-score
TCAGAATTCAGAATGGGACTGTGCTAG | -0.449 z-score
TTAGGATTGGGGACTGGGTTAGTGCTA | -0.36 z-score
TAAGGTATCCTTTTCCTTTAGTGCTAG | 1.5 z-score
TTAGGTATCGGTATCGGTAAGTGCTAG | 0.785 z-score
TCATTTTCCTCTGTCATACTGTGCTAG | 3.92 z-score
